{"data": "Measured values collected from several papers", "target": "Delta-type opioid receptor (OPRD1, Homo sapiens, UniProt P41143)", "note": "Protocols differ between the studies behind these lines."}
{"SMILES": "CN[C@@H]1[C@H](O)[C@H](NC)[C@H]2O[C@]3(O)[C@H](O[C@@H]2[C@H]1O)O[C@H](C)C[C@H]3NC(=O)Cc1cc(Cl)ccn1", "test": "ligand displacement, radioligand", "setting": "10 µM", "endpoint": "inhibition", "value": "9%"}
{"SMILES": "C/C(=N\\OCCCN1CCCCC1)c1ccc(C(F)(F)F)cc1", "test": "antagonist, cAMP", "setting": "10 µM", "endpoint": "inhibition", "value": "9.08%"}
{"SMILES": "COc1ccc(F)cc1S(=O)(=O)Nc1cnc2c(c1)C(=O)NCCO2", "test": "ligand displacement, radioligand", "setting": "10 µM", "endpoint": "inhibition", "value": "0%"}
{"SMILES": "C[C@@H]1COCCN1c1nc(NCc2cccnc2C(F)(F)F)c2cccnc2n1", "test": "binding", "setting": "CEREP panel", "endpoint": "IC50", "value": "8.93 µM"}
{"SMILES": "Cc1sc2c(c1C)C(c1ccc(Cl)cc1)=NC(CC(=O)OC(C)(C)C)c1nnc(C)n1-2 (stereo not shown)", "test": "ligand displacement, radioligand", "setting": "1 µM", "endpoint": "inhibition", "value": "-6%"}
{"SMILES": "CN1CCC23c4c5ccc(O)c4CC2C(O)C=CC3C1C5 (racemic)", "test": "receptor activation, agonist, cell-based", "endpoint": "Emax", "value": "< 10%"}
{"SMILES": "N[C@H](C(=O)N1CCCC1)C1CCN(c2nccc3c(-c4ncc(Cl)cc4Cl)cccc23)CC1", "test": "functional response, agonist", "setting": "10 µM", "endpoint": "response", "value": "-1%"}
{"SMILES": "CCN(CC)CCOc1ccc(-c2nnn(Cc3ccc(OC)cc3)c2N)cc1", "test": "radioligand binding", "system": "HEK293", "setting": "10 µM, safety profiling", "endpoint": "inhibition", "value": "4.32%"}
{"SMILES": "Cc1cc(-c2ccc3ccccc3c2)nnc1NCCN1CCN(C)CC1", "test": "antagonist", "setting": "concentration not given", "endpoint": "antagonist activity", "value": "negative"}
{"SMILES": "O=C(Cc1ccc(Cl)c(Cl)c1)N1CCN[C@@H]2COC[C@H](N3CCCC3)[C@H]21", "test": "binding", "setting": "up to 20 µM, together with: [3H]DPDPE", "endpoint": "inhibition", "value": "≤ 50%"}
{"SMILES": "CCc1nnc(-c2c(OC)cc(-c3cnc4cc(-c5cnn(C)c5)ccn34)cc2OC)o1", "test": "agonist, radioligand binding", "setting": "10 µM", "how to read": "relative to: control", "endpoint": "specific binding", "value": "93.9%"}
{"SMILES": "Cc1cc(Nc2nc(C[C@@]3(C(=O)O)CCN(Cc4cccc(Cl)c4F)[C@H](C)C3)cc(C)c2F)[nH]n1", "test": "inhibitor", "setting": "10 µM", "endpoint": "inhibition", "value": "10.1%"}
{"SMILES": "O=C(O)c1ccc(-c2nc(-c3ccccc3Cl)c3sccn23)cc1", "test": "binding", "setting": "10 µM", "endpoint": "inhibition", "value": "~82%"}
